Experimental data collected from several papers.
Parts stem from different laboratories: compare values within a part only.
UniProt O00238, sequence (whole entry, looked up): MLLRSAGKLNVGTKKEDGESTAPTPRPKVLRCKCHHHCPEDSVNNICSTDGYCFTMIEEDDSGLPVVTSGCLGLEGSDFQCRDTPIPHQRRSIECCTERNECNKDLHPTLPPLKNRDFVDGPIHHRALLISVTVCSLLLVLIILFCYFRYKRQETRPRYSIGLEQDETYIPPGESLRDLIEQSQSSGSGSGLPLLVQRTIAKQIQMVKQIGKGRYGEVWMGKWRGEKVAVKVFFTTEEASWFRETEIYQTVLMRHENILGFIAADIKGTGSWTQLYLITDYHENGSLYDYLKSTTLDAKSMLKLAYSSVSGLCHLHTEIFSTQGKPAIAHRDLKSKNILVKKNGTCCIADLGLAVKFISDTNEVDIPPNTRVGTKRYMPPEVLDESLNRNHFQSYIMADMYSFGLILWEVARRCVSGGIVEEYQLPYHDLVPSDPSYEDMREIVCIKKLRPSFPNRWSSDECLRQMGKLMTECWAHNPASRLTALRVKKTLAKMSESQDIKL
UniProt O94806, sequence (whole entry, looked up): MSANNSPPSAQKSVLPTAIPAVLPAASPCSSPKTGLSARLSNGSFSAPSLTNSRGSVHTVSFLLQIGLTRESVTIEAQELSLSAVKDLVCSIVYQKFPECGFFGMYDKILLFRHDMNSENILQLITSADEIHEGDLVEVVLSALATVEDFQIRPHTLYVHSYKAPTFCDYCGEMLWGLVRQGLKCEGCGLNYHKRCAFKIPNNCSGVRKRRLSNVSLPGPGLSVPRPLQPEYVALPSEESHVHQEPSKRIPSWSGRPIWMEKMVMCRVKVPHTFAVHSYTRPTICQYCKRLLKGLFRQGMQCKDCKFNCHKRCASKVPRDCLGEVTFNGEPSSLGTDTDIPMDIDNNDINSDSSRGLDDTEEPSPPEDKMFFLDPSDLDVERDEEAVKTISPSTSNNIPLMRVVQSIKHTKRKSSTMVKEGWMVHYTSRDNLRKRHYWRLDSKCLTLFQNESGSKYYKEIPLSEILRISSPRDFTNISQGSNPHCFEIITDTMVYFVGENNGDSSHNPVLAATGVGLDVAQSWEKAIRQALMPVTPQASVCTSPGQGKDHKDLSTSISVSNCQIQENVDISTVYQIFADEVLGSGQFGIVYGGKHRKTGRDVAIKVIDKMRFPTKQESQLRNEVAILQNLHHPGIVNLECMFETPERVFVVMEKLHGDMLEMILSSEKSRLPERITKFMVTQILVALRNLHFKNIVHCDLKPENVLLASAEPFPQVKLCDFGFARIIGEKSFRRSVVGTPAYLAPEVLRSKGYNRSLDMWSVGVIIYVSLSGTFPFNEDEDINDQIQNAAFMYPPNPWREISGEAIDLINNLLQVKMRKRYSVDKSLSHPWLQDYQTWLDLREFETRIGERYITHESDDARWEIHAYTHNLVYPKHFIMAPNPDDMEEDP
UniProt O14965, sequence (whole entry, looked up): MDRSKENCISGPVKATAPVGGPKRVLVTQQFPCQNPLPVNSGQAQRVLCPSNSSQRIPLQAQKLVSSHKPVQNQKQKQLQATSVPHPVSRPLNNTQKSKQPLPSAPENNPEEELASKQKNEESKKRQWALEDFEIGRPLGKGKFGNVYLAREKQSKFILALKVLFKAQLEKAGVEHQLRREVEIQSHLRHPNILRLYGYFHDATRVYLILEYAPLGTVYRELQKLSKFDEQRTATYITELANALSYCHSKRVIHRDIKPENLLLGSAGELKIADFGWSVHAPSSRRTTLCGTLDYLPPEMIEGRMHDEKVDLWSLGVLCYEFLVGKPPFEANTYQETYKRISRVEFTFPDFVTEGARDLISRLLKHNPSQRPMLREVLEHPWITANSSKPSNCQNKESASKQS
UniProt P09619, sequence (whole entry, looked up): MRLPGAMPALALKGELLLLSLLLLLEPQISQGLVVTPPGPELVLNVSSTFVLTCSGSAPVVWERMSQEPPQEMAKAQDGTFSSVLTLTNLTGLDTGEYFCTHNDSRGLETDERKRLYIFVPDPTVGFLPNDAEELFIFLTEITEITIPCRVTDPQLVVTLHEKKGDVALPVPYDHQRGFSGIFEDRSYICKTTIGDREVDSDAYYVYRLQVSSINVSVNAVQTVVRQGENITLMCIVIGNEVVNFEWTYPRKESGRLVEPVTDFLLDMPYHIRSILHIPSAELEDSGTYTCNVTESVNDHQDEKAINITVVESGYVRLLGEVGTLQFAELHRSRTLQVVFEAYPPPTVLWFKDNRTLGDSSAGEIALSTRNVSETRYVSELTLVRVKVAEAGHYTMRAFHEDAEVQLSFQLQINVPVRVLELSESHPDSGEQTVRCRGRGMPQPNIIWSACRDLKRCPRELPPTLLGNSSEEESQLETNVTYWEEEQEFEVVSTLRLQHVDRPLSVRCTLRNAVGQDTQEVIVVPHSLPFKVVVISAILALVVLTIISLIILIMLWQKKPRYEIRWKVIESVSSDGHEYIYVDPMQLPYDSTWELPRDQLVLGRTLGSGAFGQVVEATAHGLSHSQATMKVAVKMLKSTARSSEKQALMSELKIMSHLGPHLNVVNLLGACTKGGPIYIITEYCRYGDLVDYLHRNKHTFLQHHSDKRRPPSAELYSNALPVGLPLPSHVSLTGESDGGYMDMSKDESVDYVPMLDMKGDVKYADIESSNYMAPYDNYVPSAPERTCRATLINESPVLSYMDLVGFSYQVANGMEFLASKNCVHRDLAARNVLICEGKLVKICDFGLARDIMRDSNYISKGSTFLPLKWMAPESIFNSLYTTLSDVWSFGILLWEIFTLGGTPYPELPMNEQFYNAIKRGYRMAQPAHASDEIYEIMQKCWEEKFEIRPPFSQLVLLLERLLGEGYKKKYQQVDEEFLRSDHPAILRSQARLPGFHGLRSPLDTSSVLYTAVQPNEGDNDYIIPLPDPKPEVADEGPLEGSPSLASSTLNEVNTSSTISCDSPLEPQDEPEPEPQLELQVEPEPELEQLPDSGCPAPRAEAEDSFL
UniProt P57059, sequence (whole entry, looked up): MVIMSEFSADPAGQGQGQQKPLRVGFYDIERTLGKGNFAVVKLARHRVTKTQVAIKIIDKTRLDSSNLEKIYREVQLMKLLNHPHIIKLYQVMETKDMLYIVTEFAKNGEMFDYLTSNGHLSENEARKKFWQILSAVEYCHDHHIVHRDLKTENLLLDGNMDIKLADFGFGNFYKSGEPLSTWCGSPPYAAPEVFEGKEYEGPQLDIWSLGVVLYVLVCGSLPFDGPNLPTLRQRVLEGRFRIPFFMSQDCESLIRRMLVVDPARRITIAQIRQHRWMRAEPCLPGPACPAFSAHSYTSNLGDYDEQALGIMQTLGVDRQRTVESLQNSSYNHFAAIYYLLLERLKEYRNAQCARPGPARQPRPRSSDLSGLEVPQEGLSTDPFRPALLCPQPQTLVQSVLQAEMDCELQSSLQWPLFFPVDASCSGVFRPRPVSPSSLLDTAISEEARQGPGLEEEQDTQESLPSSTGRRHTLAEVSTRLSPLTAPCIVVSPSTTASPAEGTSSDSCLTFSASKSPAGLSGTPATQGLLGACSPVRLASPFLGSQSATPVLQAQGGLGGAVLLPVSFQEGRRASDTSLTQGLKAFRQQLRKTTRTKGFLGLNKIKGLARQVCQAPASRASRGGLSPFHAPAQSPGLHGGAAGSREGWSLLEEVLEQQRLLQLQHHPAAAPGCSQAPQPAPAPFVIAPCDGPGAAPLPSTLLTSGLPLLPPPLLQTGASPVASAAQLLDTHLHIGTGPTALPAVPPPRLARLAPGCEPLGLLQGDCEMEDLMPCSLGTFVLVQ

Sample 1 — effect on: RNA clamping; method: fluorescence polarization; concentration: concentration not given; added: FAM-labelled poly r(AG)8 RNA
Target: Eukaryotic initiation factor 4A-III (Homo sapiens, UniProt P38919)
UniProt P38919, sequence (whole entry, looked up): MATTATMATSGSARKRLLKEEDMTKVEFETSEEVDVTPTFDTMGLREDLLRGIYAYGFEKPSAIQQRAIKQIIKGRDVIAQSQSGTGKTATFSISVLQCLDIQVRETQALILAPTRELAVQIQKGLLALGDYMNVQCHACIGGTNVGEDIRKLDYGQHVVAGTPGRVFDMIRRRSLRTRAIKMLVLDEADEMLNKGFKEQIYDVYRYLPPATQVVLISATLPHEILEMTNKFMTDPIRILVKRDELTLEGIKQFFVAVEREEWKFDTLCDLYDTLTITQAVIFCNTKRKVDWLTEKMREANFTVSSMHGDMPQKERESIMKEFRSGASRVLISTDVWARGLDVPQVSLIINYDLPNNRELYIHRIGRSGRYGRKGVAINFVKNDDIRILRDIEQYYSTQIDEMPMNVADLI
| SMILES | fluorescence polarization change [mP] |
| --- | --- |
| COC(=O)[C@H]1C(=O)[C@@]2(NCc3cccnc3)c3c(OC)cc(OC)cc3O[C@@]2(c2ccc(OC)cc2)[C@@H]1c1ccccc1 | 3.2 |
| COc1ccc([C@@]23Oc4cc(OC)cc(OC)c4[C@]2(O)[C@H](O)[C@H](C(=O)c2ccco2)[C@H]3c2ccccc2OC)cc1 | 24.2 |
| COC(=O)[C@@H]1[C@@H](O)[C@@]2(O)c3c(OC)cc(F)cc3O[C@@]2(c2ccc(Cl)cc2)[C@H]1c1ccccc1 | 6.2 |
| COc1ccc([C@@]23Oc4cc(OC)cc(OC)c4[C@]2(O)C(=O)[C@H](C(=O)NCCCC2(C)OCCO2)[C@H]3c2ccccc2)cc1 | 29.8 |
| COC(=O)C1=C(c2ccccc2)[C@]2(c3ccc(OC)cc3)Oc3cc(OC)cc(OC)c3[C@]2(O)C1=O | 9.7 |
| COc1ccc([C@@]23Oc4cc(OC)cc(OC)c4[C@]2(O)[C@H](O)[C@H](C(=O)c2ccc(C)o2)[C@H]3c2ccccc2)cc1 | 17.3 |
| COC(=O)[C@@H]1[C@@H](O)[C@@]2(O)c3c(OC)cc(OS(=O)(=O)c4ccc(C)cc4)cc3O[C@@]2(c2ccc(Br)cc2)[C@H]1c1ccccc1 | 3.1 |
| C#CCCC1(CCOc2ccc([C@@H]3[C@@H](C(=O)c4ccco4)[C@@H](O)[C@@]4(O)c5c(OC)cc(OC)cc5O[C@@]34c3ccc(OC)cc3)cc2)N=N1 | -0.9 |

Sample 2 — effect on: enzyme activity; mode: inhibitor; concentration: 10 µM
Target: Calcium/calmodulin-dependent protein kinase type II subunit alpha (CAMK2A, Homo sapiens, UniProt Q9UQM7)
UniProt Q9UQM7, sequence (whole entry, looked up): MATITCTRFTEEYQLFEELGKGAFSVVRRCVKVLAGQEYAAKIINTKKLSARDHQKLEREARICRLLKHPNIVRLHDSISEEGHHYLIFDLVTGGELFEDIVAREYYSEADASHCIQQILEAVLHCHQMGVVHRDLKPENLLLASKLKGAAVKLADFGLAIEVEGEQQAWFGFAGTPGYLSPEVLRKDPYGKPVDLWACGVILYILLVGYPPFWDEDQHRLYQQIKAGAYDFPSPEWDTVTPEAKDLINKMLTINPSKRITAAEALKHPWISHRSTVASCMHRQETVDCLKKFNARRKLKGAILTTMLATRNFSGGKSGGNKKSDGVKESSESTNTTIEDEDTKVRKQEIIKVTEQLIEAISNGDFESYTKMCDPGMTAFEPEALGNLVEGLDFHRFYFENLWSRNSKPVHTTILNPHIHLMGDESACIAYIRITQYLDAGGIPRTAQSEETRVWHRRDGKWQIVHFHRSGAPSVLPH
| SMILES | inhibition [%] |
| --- | --- |
| Cc1ccnc2c1NC(=O)c1cccnc1N2C1CC1 | 3 |
| COc1ccc(-c2oc3c(CCC(C)(C)O)c(O)cc(O)c3c(=O)c2O)cc1 | -5 |
| CC1(C)C=CC(=O)C1 | -1 |
| Cc1c(NC(=O)c2cccnc2)c(=O)n(-c2ccccc2)n1C | -8 |
| CC(C)=CCC[C@](C)(O[C@@H]1O[C@H](CO[C@@H]2O[C@@H](CO)[C@H](O)[C@H]2O)[C@@H](O)[C@H](O)[C@H]1O)[C@H]1CC[C@]2(C)[C@@H]1[C@H](O)C[C@@H]1[C@@]3(C)CC[C@H](O[C@@H]4O[C@H](CO)[C@@H](O)[C@H](O)[C@H]4O)C(C)(C)[C@@H]3CC[C@]12C | -6 |
| COc1ccc(-c2cc(=O)c3c(O)c(OC)c(O)cc3o2)cc1 | 2 |
| CCCCNC(=O)NS(=O)(=O)c1ccc(C)cc1 | -7 |
| O=C(c1ccc(NS(=O)(=O)c2cccc3cccnc23)cc1)N1CCN(CC2CC2)CC1 | 6 |

Sample 3 — concentration: 1 µM
Compound: CO[C@@H](C)c1c(Nc2ccc([C@H](N(C)C(=O)C3CCS(=O)(=O)CC3)C(F)(F)F)cc2)cnc2cc(Cl)nn12
| target | effect on | method | remaining binding |
| --- | --- | --- | --- |
| Ribosomal protein S6 kinase alpha-5, C-terminal kinase domain (RPS6KA5, Homo sapiens, UniProt O75582) | cell-free assay | competition with immobilised ligand | 88% |
| Myotonin-protein kinase (DMPK, Homo sapiens, UniProt Q09013) | cell-free assay | competition with immobilised ligand | 84% |
| Epidermal growth factor receptor (EGFR, Homo sapiens, UniProt P00533, L858R) | cell-free assay | competition with immobilised ligand | 88% |
| Interferon-induced, double-stranded RNA-activated protein kinase (EIF2AK2, Homo sapiens, UniProt P19525) | cell-free assay | competition with immobilised ligand | 96% |
| Serine/threonine-protein kinase BRSK1 (BRSK1, Homo sapiens, UniProt Q8TDC3) | cell-free assay | competition with immobilised ligand | 78% |
| Inhibitor of nuclear factor kappa-B kinase subunit epsilon (IKBKE, Homo sapiens, UniProt Q14164) | cell-free assay | competition with immobilised ligand | 100% |
| Serine/threonine-protein kinase D3 (PRKD3, Homo sapiens, UniProt O94806) | cell-free assay | competition with immobilised ligand | 85% |
| Platelet-derived growth factor receptor beta (PDGFRB, Homo sapiens, UniProt P09619) | cell-free assay | competition with immobilised ligand | 100% |
| Bone morphogenetic protein receptor type-1B (BMPR1B, Homo sapiens, UniProt O00238) | cell-free assay | competition with immobilised ligand | 100% |
| Aurora kinase A (AURKA, Homo sapiens, UniProt O14965) | cell-free assay | competition with immobilised ligand | 100% |
| Serine/threonine-protein kinase SIK1 (SIK1, Homo sapiens, UniProt P57059) | – | competition binding | 87% |
| Serine/threonine-protein kinase 35 (STK35, Homo sapiens, UniProt Q8TDR2) | cell-free assay | competition with immobilised ligand | 80% |
| Ephrin type-A receptor 5 (EPHA5, Homo sapiens, UniProt P54756) | cell-free assay | competition with immobilised ligand | 100% |
| Cyclin-dependent kinase 2 (CDK2, Homo sapiens, UniProt P24941) | cell-free assay | competition with immobilised ligand | 88% |
| Serine/threonine-protein kinase mTOR (MTOR, Homo sapiens, UniProt P42345) | cell-free assay | competition with immobilised ligand | 100% |

Sample 4 — concentration: 50 µM
Target: Bromodomain-containing protein 4, BD1 (BRD4, Homo sapiens, UniProt O60885)
| Structure (SMILES) | inhibition |
| --- | --- |
| C#Cc1cccc(Nc2ncnc3cc(OC)c(OCCCCCCC(=O)NO)cc23)c1 | 37% |
| COc1cc2c(N3CCN(C(=O)Nc4ccc(OC(C)C)cc4)CC3)ncnc2cc1OCCCN1CCCCC1 | 24.1% |
| CS(=O)(=O)N1CCN(Cc2cc3nc(-c4cccc5[nH]ncc45)nc(N4CCOCC4)c3s2)CC1 | 23.5% |
| CNC(=O)c1nn(C)c2c1C(C)(C)Cc1cnc(Nc3ccc(N4CCN(C)CC4)cc3)nc1-2 | 53.9% |
| Cc1ccc(F)c(NC(=O)Nc2ccc(-c3cccc4[nH]nc(N)c34)cc2)c1 | 58.9% |
| CC(C)[C@H](CO)Nc1nc(Nc2ccc(C(=O)O)c(Cl)c2)c2ncn(C(C)C)c2n1 | 9.25% |
| COCCNCc1ccc(-c2cc3nccc(Oc4ccc(NC(=S)NC(=O)Cc5ccc(F)cc5)cc4F)c3s2)nc1 | 38.8% |
| COc1cc(Nc2ncc(F)c(Nc3ccc4c(n3)NC(=O)C(C)(C)O4)n2)cc(OC)c1OC | 23.2% |
| S=C(NCc1ccc2c(c1)OCO2)N1CCN(c2ncnc3c2oc2ccccc23)CC1 | 21.2% |

A few entries again (sample 4):
| Structure (SMILES) | inhibition |
| --- | --- |
| C#Cc1cccc(Nc2ncnc3cc(OC)c(OCCCCCCC(=O)NO)cc23)c1 | 37% |
| Cc1ccc(F)c(NC(=O)Nc2ccc(-c3cccc4[nH]nc(N)c34)cc2)c1 | 58.9% |
